Published values collected from several papers.
Compare with care: the assays were run in different laboratories. “And” joins repeats or separate records; there may be more than shown.
Cell line: HEK293

| SMILES | test | setting | IC50 |
| --- | --- | --- | --- |
| CN(c1ccc(NC(=O)c2ccc(C(=N)N)cc2)cc1OCc1ccc(C(F)(F)F)cc1)S(=O)(=O)C(F)(F)F | cell growth, MTT | 48 h | > 500 µM |
| CC(C)C[C@H](NC(=O)[C@H](Cc1ccc(O)cc1)NC(=O)[C@@H]1CCCN1C(=O)[C@H](CCCNC(=N)N)NC(=O)[C@@H]1CCCN1C(=O)[C@H](CCCCN)NC(=O)[C@H](CC(=O)O)NC(=O)[C@@H]1CCCN1C(=O)[C@H](CCCNC(=N)N)NC(=O)C1(N)CCCCC1)C(=O)N1CCC[C@H]1C(=O)N[C@@H](CCCNC(=N)N)C(=O)N1CCC[C@H]1C(=O)N[C@@H](CCCNC(=N)N)C(=O)N1CCC[C@H]1C(=O)N1CCC[C@H]1C(=O)N[C@@H](CCCNC(=N)N)C(=O)N1CCC[C@H]1C(=O)N[C@H](C(=O)N[C@@H](CCCNC(=N)N)C(=O)N[C@@H](CSSC[C@H](NC(=O)[C@H](CCCNC(=N)N)NC(=O)[C@@H](NC(=O)[C@@H]1CCCN1C(=O)[C@H](CCCNC(=N)N)NC(=O)[C@@H]1CCCN1C(=O)[C@@H]1CCCN1C(=O)[C@H](CCCNC(=N)N)NC(=O)[C@@H]1CCCN1C(=O)[C@H](CCCNC(=N)N)NC(=O)[C@@H]1CCCN1C(=O)[C@H](CC(C)C)NC(=O)[C@H](Cc1ccc(O)cc1)NC(=O)[C@@H]1CCCN1C(=O)[C@H](CCCNC(=N)N)NC(=O)[C@@H]1CCCN1C(=O)[C@H](CCCCN)NC(=O)[C@H](CC(=O)O)NC(=O)[C@@H]1CCCN1C(=O)[C@H](CCCNC(=N)N)NC(=O)C1(N)CCCCC1)C(C)C)C(=O)NN)C(=O)NN)C(C)C | cytotoxicity | highest tested 125 µg/mL | > 125 µg/mL |
| CC(=O)O[C@@]12CO[C@@H]1C[C@H](O)[C@@]1(C)C(=O)[C@H](O)C3=C(C)[C@@H](OC(=O)[C@H](O)[C@@H](NC(=O)OC(C)(C)C)c4ccccc4)C[C@@](O)([C@@H](OC(=O)c4ccccc4)[C@H]21)C3(C)C | MTT | 24 h | > 50 µg/mL |
| C#CCCCC[C@H](C)C[C@@H](C)C(=O)O | cell growth, sulforhodamine B |  | 232 µM and 329 µM and 216 µM |
| CN(c1ccc(NC(=O)c2cccc(C(=N)N)c2)cc1OCc1ccc(C(F)(F)F)cc1)S(=O)(=O)C(F)(F)F | cell growth, MTT | 48 h | > 500 µM |
| COc1cc(NC(=O)c2ccc(C#N)cc2)ccc1S(N)(=O)=O | cell viability, MTT | 48 h | > 100 µM |
| CN(c1ccc(NC(=O)c2cccc(C(=N)N)c2)cc1OCc1ccc(C(F)(F)F)cc1)S(=O)(=O)Cc1ccccc1 | cell growth, MTT | 48 h | > 500 µM |
| COc1cc(NC(=O)c2ccc(C(F)(F)F)cc2C(F)(F)F)ccc1S(N)(=O)=O | cell viability, MTT | 48 h | > 100 µM |
| COc1cccc2c1C(=O)c1c(O)c3c(c(O)c1C2=O)C[C@@](O)(C(=O)CO)C[C@@H]3O[C@H]1C[C@H](N)[C@H](O)[C@H](C)O1 | cell growth, sulforhodamine B |  | 42.6 µM and 34.8 µM and 38.7 µM |
| COc1cc(NC(=O)c2ccc(Cl)cc2)ccc1S(N)(=O)=O | cell viability, MTT | 48 h | > 100 µM |
| CN(c1ccc(NC(=O)c2ccc(C(=N)N)cc2)cc1OCc1ccc(C(F)(F)F)cc1)S(=O)(=O)Cc1ccccc1 | cell growth, MTT | 48 h | > 500 µM |
| COc1cc(NC(=O)c2cccc(C(F)(F)F)c2)ccc1S(N)(=O)=O | cell viability, MTT | 48 h | > 100 µM |
| Cc1ccc(C)c(COc2cc(NC(=O)c3cc(C(F)(F)F)cc(C(F)(F)F)c3)ccc2NC(=N)N)c1 | cell growth, MTT | 48 h | > 500 µM |
| Cc1ccc(C(C)C)c(OC2=C(Cl)C(=O)c3ccccc3C2=O)c1 | MTT | 24 h | > 100 µg/mL |
| COc1cc(NC(=O)c2cccc(C#N)c2)ccc1S(N)(=O)=O | cell viability, MTT | 48 h | > 100 µM |

Repeated from above:
| SMILES | test | setting | IC50 |
| --- | --- | --- | --- |
| CN(c1ccc(NC(=O)c2cccc(C(=N)N)c2)cc1OCc1ccc(C(F)(F)F)cc1)S(=O)(=O)Cc1ccccc1 | cell growth, MTT | 48 h | > 500 µM |
